Experimental data pooled from the literature.
Parts stem from different laboratories: compare values within a part only.

Study 1
Target: Prothrombin, mature alpha-thrombin (F2, Homo sapiens, UniProt P00734)
Technique: aptamer microarray, sandwich
Form: DNA with 2'F-ANA
Sample: in vitro
Tested at: 200 nM
Setting: whole 15-mer aptamer, many near background
With: Cy3 exosite-II aptamer, 400 nM
Direction: higher = stronger binding
Measurement: mean fluorescence intensity
Strand: GGTTGGTGTGGTTGG
2'F-ANA at 3 5 6 7 8 9 10 13 15: 64.4 a.u.
2'F-ANA at 1 2 3 4 7 8 13 14: 83.3 a.u.
2'F-ANA at 1 2 3 4 6 9 10 13: 55.4 a.u.
2'F-ANA at 1 2 5 8 9 10 12: 49.1 a.u.
2'F-ANA at 1 2 4 5 6 8 9 12 15: 126 a.u.
2'F-ANA at 2 5 6 7 11 12: 114 a.u.
2'F-ANA at 5 10 12 15: 72.3 a.u.
2'F-ANA at 2 3 5 7 8 10 11: 54.6 a.u.
2'F-ANA at 2 6 7 10 12 14 15: 90.8 a.u.
2'F-ANA at 1 3 4 6 8 11 12 15: 319 a.u.
2'F-ANA at 1 2 3 7 10 11 14 15: 51.5 a.u.
2'F-ANA at 1 2 3 4 5 8 9 11 12 15: 107 a.u.
2'F-ANA at 2 3 4 6 9 11 15: 508 a.u.
2'F-ANA at 3 5: 144 a.u.
2'F-ANA at 2 4 6 9 10 11 13 14 15: 71 a.u.
2'F-ANA at 2 3 4 5 8 9 10 14 15: 47.9 a.u.
2'F-ANA at 1 2 4 5 7 8 9 10 11 12 15: 52.4 a.u.
2'F-ANA at 2 5 6 9 11 14: 91.5 a.u.
2'F-ANA at 1 2 3 4 5 9 10 11 13: 52.3 a.u.
2'F-ANA at 2 3 4 5 7 9 10 11 12 14 15: 49.2 a.u.
2'F-ANA at 6 8 9 12 13 14 15: 157 a.u.

Study 2
Target: Histone acetyltransferase KAT6A, winged helix 1, GST fusion (KAT6A, Homo sapiens, UniProt Q92794, residues 1-85)
Technique: protein binding microarray
Form: double-stranded DNA, one strand shown
Sample: in vitro
Tested at: not given
Setting: 8-mer, flanks averaged, mean of 2 arrays, mostly near background
Relative to: not given
Direction: higher = stronger binding
Measurement: E-score
Target sequence (chain): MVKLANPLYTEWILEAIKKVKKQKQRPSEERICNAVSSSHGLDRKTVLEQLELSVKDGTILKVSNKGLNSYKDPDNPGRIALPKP
CAGAACAC: -0.0729
TCGAACAA: -0.137
ACAGCAGG: -0.0956
ATTGTAGC: 0.0533
AGTCGCGA: 0.191
GTTGAAAC: 0.0348
CTGATGTC: -0.092
GAAAGTCC: -0.013
CAGCCGGA: 0.0707
ATAGTTTG: -0.127
AATCTGAG: -0.225
AAGGAATA: -0.0409
AAGTGTAT: -0.141
GCGATACC: 0.224
CTGACCGA: 0.0568
GTCTAGTA: -0.0327
AGGTCTAC: -0.0907
ATGATTGC: -0.0112
CATAGCAA: -0.211
ATCCGCCC: 0.216

Study 3
Target: RNA binding protein fox-1 homolog 2, RRM domain, GST-SBP tag (RBFOX2, Homo sapiens, UniProt O43251-10, residues 100-194)
Technique: RNA Bind-n-Seq
Form: RNA
Sample: in vitro
Tested at: 365 nM
Setting: natural RNA segment, single round, ends assumed
Relative to: no-protein control
Direction: higher = stronger binding
Measurement: RBNS enrichment (R)
All sequences stand within: GGGAGUUCUACAGUCCGACGAUC … UGGAAUUCUCGGGUGCCAA
Target sequence (chain): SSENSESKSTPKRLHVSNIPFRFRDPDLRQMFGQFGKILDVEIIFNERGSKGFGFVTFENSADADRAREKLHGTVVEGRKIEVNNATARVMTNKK
GGGUAGUCCACUCAUAUUCUUGCAGGGUGAGUCCAUGCUCAGGAGAAUGCGGUCCACCUUUCUAUGUACUCUAGCUUCCCUCUCUUCAGGUUGAUAUAGCGACAUUACCU: 0.641
UUUUCUCUUUAGGUGACUGUUUAAGAAAUUUGUGUGCAUAGUUACUCAGUUUUUAUGAACUGUUGUAUCCUGUUAAUGCAUAUUGCUCUGUGACUCCAGUAUAUCUUACC: 0.351
CAAUUACAGAGCACAAUGACUGUCGUUGGAUAUAUAUGUAUAUGUAUAUGUAUAUUAUAUGUAUAUGUACACAUAUAUAUUCUAUUAUUAGGCAUACAAGUGGCUCCUGU: 0.298
UUUUUGAAAUGUGUAUUUCUAAUUAUAUAAAAUAUUAAGAAUCUUUUAAAAAUCUGUGAAAUUAACAUGCUUGUGUAUAGCUUUCUAAUAUAUAUAAUAUUAUGGUAAUG: 2.79
AGUUUAUAGCAUACAAAAAUUAUACUGCUCUUCCCAGUAAGGGACUAAAAGGACAUUUGAAAUCUUUACAUUUUAGAUGUUUUUGUGAAUUAUAAAUAUCUCCUUUUUCC: 0.979
UCAGUGGUUUAGAAAUGAGAUACCAGUGUUAAUGAAAAGUGUGUGCUCUUUGCUUUUGCAUGGCUUGGCUUAGUAUCCAAGGUAUAUUAGGGCCACUUGAAAGCAUGAAG: 19.4
CUGGGAAUUUUCUUUUUCCUGAAACUUUGAAUCACCCUAGUAAGUCAAAGUACUAAAAAAUGUACUAGAUCAUUAAGACUUAUGUGCUCUUACUGAUUGAAAGAUUUUUU: 0.399
CUGGGCUUUUCUGUAAUAAGCUUCCUUUUAUAAUACUGGUCAGCUUAGCUCUCUCAGAUCCUAUCCUGUGGAAUUUAGUUAUUAUGUGUAUUUAUGUAGUAUUUCAAACA: 0.746

Study 4
Target: RING finger protein unkempt homolog, zinc fingers 1-6, GST-SBP tag (UNK, Homo sapiens, UniProt Q9C0B0, residues 30-357)
Technique: RNA Bind-n-Seq
Form: RNA
Sample: in vitro
Tested at: not given
Setting: RNA with constant flanks, ends assumed
Relative to: input RNA pool
Direction: higher = stronger binding
Measurement: bound/input enrichment
All sequences stand within: GGGAGUUCUACAGUCCGACGAUC … CAACAGAGGAUUGAGCAUCA
Residues (chain): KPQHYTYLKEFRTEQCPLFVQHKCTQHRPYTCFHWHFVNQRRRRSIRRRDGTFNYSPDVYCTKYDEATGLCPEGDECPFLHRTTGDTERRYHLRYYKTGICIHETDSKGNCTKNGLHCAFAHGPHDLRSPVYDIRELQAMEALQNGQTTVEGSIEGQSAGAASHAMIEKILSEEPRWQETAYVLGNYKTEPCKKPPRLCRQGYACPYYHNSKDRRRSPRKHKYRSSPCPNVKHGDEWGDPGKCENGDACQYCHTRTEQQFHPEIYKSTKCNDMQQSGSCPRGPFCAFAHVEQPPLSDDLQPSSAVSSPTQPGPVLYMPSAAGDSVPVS
GAGGAUGCUCCUGGGACUUCGGAGCAGAGCUGCUGUGCUCGGGAAGACGGCAUUGAUGCUGCCGAGGUGGCAGCCGACCGACCUGGCAGUCCUCGGAGCUCGGCCUCUGGUACACACUCU: 0.0638 ratio
GACAUUUGGACCUUGUUGGGAACAGUGCUUUAUCCAUUCCUUGCCAUCUGGAGAUUAAUCCGCAAUUUCUUGUUUAGUAAUCCGCCUCCCACACAGACUUCAGUGAGAGUAACAUCGUCA: 0.397 ratio
AAUAUACAUGGAACUUUGGUCUUUGGAACAAGUAGUAGUUUGUCUGGCAUAAUGGCAAACUCCGUUUUCCGAAACAGUUUCAAGGUUAAAUAUGAAGCUUUGAAGACCUAUGCAUCCCUG: 0.0975 ratio
AUGACAUUAGUGAAAGCAUCAAAGAGCUUCAGUUUUACCGAAAUAACAUCUUCAAGAAAAAAACCGAUGAAAAGAAGAGGAAAAUUAUAGAAAAUGGGGAAAAUGAGAAGACCGUGAGUU: 0.953 ratio
GGAGAGGCCCAGGCAGCGGCGGCGGCGGCGGCUCUCGGGUUGCGGUGAAGAAUGUCAGCCACCCGCGUGGAUCAGAGACCUAAAGGGCAAGGAAAUAAAGUUUCAGUACAAAACGGUUCG: 0.183 ratio
AAUACUUGGCAGUUCAAUUUCAAAUUUAACCUUACAGAGGACAUGUACUCCCAGGAUUCCACCGAUCUCCUUGCUAACUCAGGACUACAGUUUCAGAAGCAUGAAGAGGAAGGGAUUGAC: 0.389 ratio
UCAGGGUGGAAGUCCAUGAUUCAGUCUCACCCUCAUUUAGUAGCAGAAGCCUUUCGAGCACCCGCAUCUGCACAGUGUCCACAGUUUGGCAUUCCACGCAAACGGCUAAAACAGUCCUGA: 0.137 ratio
UUCUCCUCCUCUUCCUCCUCCUCCUCUGGUCCUAGGAGUUUUUACCCUCGCCAGGGCGCUACCCGCAAGUACCUGAUUGGAUGGAAAAAACCCGAAGGAACCAUAAACUCCGUGGGAUUU: 0.266 ratio

Excerpt of the above (study 3):
CUGGGCUUUUCUGUAAUAAGCUUCCUUUUAUAAUACUGGUCAGCUUAGCUCUCUCAGAUCCUAUCCUGUGGAAUUUAGUUAUUAUGUGUAUUUAUGUAGUAUUUCAAACA: 0.746
UUUUUGAAAUGUGUAUUUCUAAUUAUAUAAAAUAUUAAGAAUCUUUUAAAAAUCUGUGAAAUUAACAUGCUUGUGUAUAGCUUUCUAAUAUAUAUAAUAUUAUGGUAAUG: 2.79
UUUUCUCUUUAGGUGACUGUUUAAGAAAUUUGUGUGCAUAGUUACUCAGUUUUUAUGAACUGUUGUAUCCUGUUAAUGCAUAUUGCUCUGUGACUCCAGUAUAUCUUACC: 0.351
CUGGGAAUUUUCUUUUUCCUGAAACUUUGAAUCACCCUAGUAAGUCAAAGUACUAAAAAAUGUACUAGAUCAUUAAGACUUAUGUGCUCUUACUGAUUGAAAGAUUUUUU: 0.399
GGGUAGUCCACUCAUAUUCUUGCAGGGUGAGUCCAUGCUCAGGAGAAUGCGGUCCACCUUUCUAUGUACUCUAGCUUCCCUCUCUUCAGGUUGAUAUAGCGACAUUACCU: 0.641
CAAUUACAGAGCACAAUGACUGUCGUUGGAUAUAUAUGUAUAUGUAUAUGUAUAUUAUAUGUAUAUGUACACAUAUAUAUUCUAUUAUUAGGCAUACAAGUGGCUCCUGU: 0.298
